Published values collected from several papers.
Every numbered part comes from another study and shows a few of its results, in no order.
Chain of UniProt Q9UQM7 (whole entry, looked up): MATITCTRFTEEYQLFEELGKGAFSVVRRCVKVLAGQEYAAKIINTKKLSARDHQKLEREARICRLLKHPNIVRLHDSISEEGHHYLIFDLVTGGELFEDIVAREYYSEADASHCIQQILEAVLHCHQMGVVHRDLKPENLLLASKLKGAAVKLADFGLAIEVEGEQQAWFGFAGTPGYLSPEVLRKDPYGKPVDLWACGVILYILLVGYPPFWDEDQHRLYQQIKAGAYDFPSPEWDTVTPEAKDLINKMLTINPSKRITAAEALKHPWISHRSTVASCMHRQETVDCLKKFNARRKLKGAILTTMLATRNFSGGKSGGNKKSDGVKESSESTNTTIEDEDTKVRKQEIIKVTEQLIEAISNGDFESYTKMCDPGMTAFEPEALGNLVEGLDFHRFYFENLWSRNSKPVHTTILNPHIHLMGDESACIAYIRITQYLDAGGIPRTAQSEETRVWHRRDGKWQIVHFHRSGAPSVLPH
Chain of UniProt P9WI81 (whole entry, looked up): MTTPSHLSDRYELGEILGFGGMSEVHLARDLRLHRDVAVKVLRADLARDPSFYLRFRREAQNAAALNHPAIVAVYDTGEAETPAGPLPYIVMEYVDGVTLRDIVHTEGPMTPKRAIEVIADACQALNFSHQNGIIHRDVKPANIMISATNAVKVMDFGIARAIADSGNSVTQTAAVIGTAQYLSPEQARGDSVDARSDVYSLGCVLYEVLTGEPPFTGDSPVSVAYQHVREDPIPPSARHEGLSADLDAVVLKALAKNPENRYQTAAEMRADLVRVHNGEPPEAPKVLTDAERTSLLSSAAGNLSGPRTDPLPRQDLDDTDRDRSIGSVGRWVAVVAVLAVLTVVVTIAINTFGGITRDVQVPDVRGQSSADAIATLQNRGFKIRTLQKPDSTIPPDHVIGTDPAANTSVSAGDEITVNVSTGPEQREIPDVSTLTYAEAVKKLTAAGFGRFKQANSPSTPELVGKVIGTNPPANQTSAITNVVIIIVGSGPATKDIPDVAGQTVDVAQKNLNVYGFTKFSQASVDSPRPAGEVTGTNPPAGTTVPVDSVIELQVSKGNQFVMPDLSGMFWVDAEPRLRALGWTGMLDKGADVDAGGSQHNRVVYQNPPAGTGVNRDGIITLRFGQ

Block 1 — observed: peptide-MHC binding; form: peptide; tested at: concentration not given; quantity: binding
Target: HLA class I histocompatibility antigen, A alpha chain, allele A*80:01 (Homo sapiens, UniProt P04439)
Sequence = FVMPIFEQI; result = inactive
Sequence = QTDNDIWFW; result = inactive
Sequence = SYMLQGLRK; result = inactive
Sequence = GFAIPIILK; result = inactive
Sequence = MHDPHSIPL; result = inactive
Sequence = HAAVRRNAF; result = inactive
Sequence = FPDGKPFTL; result = inactive
Sequence = YQAENSTAE; result = inactive

Block 2 — target: UBE2D2 UBC core domain (UniProt P62837); method: yeast two-hybrid; matrix: yeast; notes: mostly zero background; reference: not given; direction: higher = stronger interaction; quantity: lacZ reporter activity
Chain of UniProt P62837 (whole entry, looked up): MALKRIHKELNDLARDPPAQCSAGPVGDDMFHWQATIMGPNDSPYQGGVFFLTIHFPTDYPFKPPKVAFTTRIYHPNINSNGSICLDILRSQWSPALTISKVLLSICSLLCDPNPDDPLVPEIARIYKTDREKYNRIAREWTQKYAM
B1: NEURL1 RING domain (UniProt O76050); chain VTPGLGQWSDECTICYEHAVDTVIYTCGHMCLCYACGLRLKKALHACCPICRRPIKDIIKT
B2: TRIM40 RING domain (UniProt Q6P9F5); chain LQKDNQEEGVCPICQESLKEAVSTNCGHLFCRVCLTQHVEKASASGVFCCPLCRKPCSEEVLG
B3: TRIML1 RING domain (UniProt Q8N9V2); chain LMENLREELTCFICLDYFSSPVTTECGHSFCLVCLLRSWEEHNTPLSCPECWRTLEGPHFQS
B4: RNF111 RING domain (UniProt Q6ZNA4); chain EGTEEDTEEKCTICLSILEEGEDVRRLPCMHLFHQVCVDQWLITNKKCPICRVDIEAQLPSE
B5: RC3H1 RING domain (UniProt Q5TC82); chain QAPQWTDFLSCPICTQTFDETIRKPISLGCGHTVCKMCLNKLHRKACPFDQTTINTDIELL
B6: RNF38 RING domain (UniProt Q9H0F5); chain PNNHQSEQTLCVVCMCDFESRQLLRVLPCNHEFHAKCVDKWLKANRTCPICRADASEVHRDS
Sequence = B1 (NEURL1 RING domain); result = 0
Sequence = MPIRALCTICSDFFDHSRDVAAIHCGHTFHLQCLIQWFETAPSRTCPQCRIQVGKRTIIN (TRAIP RING domain (UniProt Q9BWF2)); result = 0
Sequence = B2 (TRIM40 RING domain); result = 0
Sequence = B3 (TRIML1 RING domain); result = 0
Sequence = B4 (RNF111 RING domain); result = 14700
Sequence = DHGAVGQEMCCPICCSEYVKGEVATELPCHHYFHKPCVSIWLQKSGTCPVCRCMFPPPL (PJA1 RING domain (UniProt Q8NG27)); result = 0
Sequence = B5 (RC3H1 RING domain); result = 0
Sequence = B6 (RNF38 RING domain); result = 0

Further values, each from its own experiment
Compound = COc1cc(C(=O)N2c3ccccc3C=Cc3ccccc32)cc(OC)c1OC; target = vesicular stomatitis virus glycoprotein; observed = viral entry; method = VSVΔG-G pseudovirus; tested at = 10 µM; quantity = inhibition; result = 34%
Compound = C[C@H]1CC[C@H](n2c3cnccc3c3cnc(Nc4ccc5c(n4)CCN(C(=O)CO)C5)nc32)CC1; target = pknB (Mycobacterium tuberculosis, UniProt P9WI81); observed = cell-free assay; tested at = 1 µM; quantity = remaining signal; result = 51%
Compound = CC[C@H]1CN2CC[C@]3(C(=O)Nc4ccccc43)[C@@H]2C[C@@H]1/C(=C\OC)C(=O)OC; target = CAMK2A (Homo sapiens, UniProt Q9UQM7); observed = enzyme activity; action = inhibitor; tested at = 10 µM; quantity = inhibition; result = -31%

For quick reference, copied from above (block 2):
Sequence = MPIRALCTICSDFFDHSRDVAAIHCGHTFHLQCLIQWFETAPSRTCPQCRIQVGKRTIIN (TRAIP RING domain (UniProt Q9BWF2)); result = 0
Sequence = DHGAVGQEMCCPICCSEYVKGEVATELPCHHYFHKPCVSIWLQKSGTCPVCRCMFPPPL (PJA1 RING domain (UniProt Q8NG27)); result = 0
